Results gathered from unrelated publications.
Numbered parts are unrelated; each lists some results of a single study. Substitutions count along the parent as printed.

Series 1
Target: CCNA2, cyclin fold, Cln2 fusion (human)
Method: yeast growth competition, sequencing
Medium: yeast
Setting: weak parent motif
Baseline: not given
Direction: higher = stronger binding
Measurement: normalised enrichment score
Starting sequence: SLBP docking peptide (human); ARYKRKLLINDFG
ARRKRKLLINDFG [Y3R]: 0.927
ARYKRKLLINDFR [G13R]: -0.0625
ARYKRKLLRNDFG [I9R]: 0.762
ARYKRWLLINDFG [K6W]: 2.3
NRYKRKLLINDFG [A1N]: 1.62
ARYKRKKLINDFG [L7K]: 0.491
AGYKRKLLINDFG [R2G]: 1.61
ARYKKKLFINDFG [R5K L8F]: 1.54

Series 2
Target: Interferon regulatory factor 3, full length, phosphomimetic (IRF3, Homo sapiens, UniProt Q14653, residues 1-427, S386D/S396D/S398D/S402D/T404D/S405D)
Chain of UniProt Q14653 (whole entry, unmodified, looked up): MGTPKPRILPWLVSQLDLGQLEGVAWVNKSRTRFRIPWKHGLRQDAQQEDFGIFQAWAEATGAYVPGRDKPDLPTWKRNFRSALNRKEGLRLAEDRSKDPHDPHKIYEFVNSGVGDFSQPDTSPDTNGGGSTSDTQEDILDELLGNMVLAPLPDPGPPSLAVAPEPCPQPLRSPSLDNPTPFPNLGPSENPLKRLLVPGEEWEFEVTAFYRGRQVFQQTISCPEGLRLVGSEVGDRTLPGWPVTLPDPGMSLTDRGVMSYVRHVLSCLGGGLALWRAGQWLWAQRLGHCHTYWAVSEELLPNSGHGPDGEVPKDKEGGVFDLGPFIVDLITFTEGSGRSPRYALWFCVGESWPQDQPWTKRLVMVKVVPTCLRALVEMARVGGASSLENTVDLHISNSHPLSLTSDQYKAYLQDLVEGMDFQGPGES
Method: protein-binding microarray
Molecule type: double-stranded DNA, one strand shown
Medium: in vitro
Concentration: 2540 nM top
Setting: 60-bp whole probe
Together with: salmon DNA 0.4 mg/ml
Baseline: random background probes
Direction: higher = stronger binding
Measurement: fitted relative affinity
Constant ends, left off below: GCCTAGCAC … GTCTTGATTCGCTTGACGCTGCTG
TTAGATCTCAGTCTCGATTCGTGCTAG: 0.751 z-score
GACGGTATCGGGTATCGGGAAGTGCTA: 1.96 z-score
TCACCTTGCTTTATGTGACTGTGCTAG: 0.483 z-score
GCCGATTTCAGTCTCGAGACGTGCTAG: 2.93 z-score
TCATTAATGCTTCTGGGACTGTGCTAG: -0.0887 z-score
TTAGGACTGGGTCTAGGTTAGTGCTAG: -1.1 z-score
CACGGTATCCTACTGCTGACGTGCTAG: 2.47 z-score
TCACATTTTTTTATCAAACTGTGCTAG: 0.775 z-score
GACGGTTTCGGACGGGGGACGTGCTAG: 2.84 z-score
TTAGGACTGTGGTTTCGGTTAGTGCTA: 3.47 z-score
TAAGGACTGGGTCTCGGTTAGTGCTAG: -0.617 z-score
GACGGTTTCGACTTTCGTGACGTGCTA: 3.7 z-score
TTAGATTTCGGGACTGGATGAGTGCTA: 1.36 z-score

Series 3
Target: ATF3, bZIP domain (human)
Method: DHFR protein complementation
Medium: yeast
Setting: single substitutions, most at no-binding floor
Baseline: wild-type JUN-FOS pair
Direction: higher = stronger binding
Measurement: binding fitness
Starting sequence: JUN, bZIP domain (human); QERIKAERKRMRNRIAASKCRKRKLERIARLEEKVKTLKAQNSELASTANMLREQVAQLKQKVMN; partner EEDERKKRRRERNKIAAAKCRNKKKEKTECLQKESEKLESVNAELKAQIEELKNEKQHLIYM
R53H: -0.416 natural log
Q58H: -0.241 natural log
I28C: -0.33 natural log
E54P: -1.11 natural log
N42M: -0.595 natural log
A29N: -0.197 natural log
R30Q: 0.00973 natural log

Mixed results
PhoQ, residues 284 288 289 292 302 303 ASSHFY  fold induction (PhoP, residues 12 14 15 18 19 NHFRA (Escherichia coli, UniProt P23836); Sort-seq, refers to: YFP reporter; E. coli; PhoQ-PhoP variant library, together with: 10 µM Mg2+; baseline: high Mg2+ state, higher = stronger signaling): 1.93

Excerpt of the above (series 3):
R30Q: 0.00973 natural log
R53H: -0.416 natural log
N42M: -0.595 natural log
A29N: -0.197 natural log
